{"data": "Published values pooled from the literature", "note": "A part holds a random share of what one study measured.", "UniProt Q00526, sequence (whole entry, looked up)": "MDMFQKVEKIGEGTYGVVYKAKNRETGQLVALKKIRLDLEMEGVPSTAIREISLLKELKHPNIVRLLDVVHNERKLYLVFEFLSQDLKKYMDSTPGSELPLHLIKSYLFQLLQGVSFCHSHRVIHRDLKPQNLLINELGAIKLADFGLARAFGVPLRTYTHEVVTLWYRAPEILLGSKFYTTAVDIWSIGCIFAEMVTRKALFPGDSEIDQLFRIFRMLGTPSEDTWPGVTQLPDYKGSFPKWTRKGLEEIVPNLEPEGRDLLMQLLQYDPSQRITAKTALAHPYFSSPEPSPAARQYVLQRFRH", "UniProt Q8IY84, sequence (whole entry, looked up)": "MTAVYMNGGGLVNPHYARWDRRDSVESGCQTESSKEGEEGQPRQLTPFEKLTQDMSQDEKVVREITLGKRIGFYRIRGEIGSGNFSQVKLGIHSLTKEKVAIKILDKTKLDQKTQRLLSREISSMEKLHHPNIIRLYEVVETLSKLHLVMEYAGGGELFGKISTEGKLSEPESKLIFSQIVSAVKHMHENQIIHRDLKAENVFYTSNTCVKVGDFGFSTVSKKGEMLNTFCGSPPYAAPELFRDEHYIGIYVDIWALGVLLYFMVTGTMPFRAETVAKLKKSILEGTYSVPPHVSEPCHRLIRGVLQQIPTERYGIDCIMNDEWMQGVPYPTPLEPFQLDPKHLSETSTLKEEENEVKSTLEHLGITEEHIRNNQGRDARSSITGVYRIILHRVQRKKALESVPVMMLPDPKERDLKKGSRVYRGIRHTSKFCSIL", "UniProt O15530, sequence (whole entry, looked up)": "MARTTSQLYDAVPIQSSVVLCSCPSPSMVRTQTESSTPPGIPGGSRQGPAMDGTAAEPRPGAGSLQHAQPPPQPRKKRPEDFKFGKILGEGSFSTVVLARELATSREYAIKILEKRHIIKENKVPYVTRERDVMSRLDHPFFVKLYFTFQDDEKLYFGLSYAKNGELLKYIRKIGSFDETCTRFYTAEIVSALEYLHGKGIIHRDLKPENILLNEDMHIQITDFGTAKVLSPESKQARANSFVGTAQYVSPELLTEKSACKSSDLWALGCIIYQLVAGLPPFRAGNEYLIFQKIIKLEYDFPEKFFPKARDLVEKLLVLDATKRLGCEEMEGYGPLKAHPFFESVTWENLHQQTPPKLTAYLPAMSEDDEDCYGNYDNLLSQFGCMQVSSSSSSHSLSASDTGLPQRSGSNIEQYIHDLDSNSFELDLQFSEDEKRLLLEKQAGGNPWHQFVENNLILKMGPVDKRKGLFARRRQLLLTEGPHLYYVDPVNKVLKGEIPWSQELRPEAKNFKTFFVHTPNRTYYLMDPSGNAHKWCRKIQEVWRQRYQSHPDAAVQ", "UniProt P57058, sequence (whole entry, looked up)": "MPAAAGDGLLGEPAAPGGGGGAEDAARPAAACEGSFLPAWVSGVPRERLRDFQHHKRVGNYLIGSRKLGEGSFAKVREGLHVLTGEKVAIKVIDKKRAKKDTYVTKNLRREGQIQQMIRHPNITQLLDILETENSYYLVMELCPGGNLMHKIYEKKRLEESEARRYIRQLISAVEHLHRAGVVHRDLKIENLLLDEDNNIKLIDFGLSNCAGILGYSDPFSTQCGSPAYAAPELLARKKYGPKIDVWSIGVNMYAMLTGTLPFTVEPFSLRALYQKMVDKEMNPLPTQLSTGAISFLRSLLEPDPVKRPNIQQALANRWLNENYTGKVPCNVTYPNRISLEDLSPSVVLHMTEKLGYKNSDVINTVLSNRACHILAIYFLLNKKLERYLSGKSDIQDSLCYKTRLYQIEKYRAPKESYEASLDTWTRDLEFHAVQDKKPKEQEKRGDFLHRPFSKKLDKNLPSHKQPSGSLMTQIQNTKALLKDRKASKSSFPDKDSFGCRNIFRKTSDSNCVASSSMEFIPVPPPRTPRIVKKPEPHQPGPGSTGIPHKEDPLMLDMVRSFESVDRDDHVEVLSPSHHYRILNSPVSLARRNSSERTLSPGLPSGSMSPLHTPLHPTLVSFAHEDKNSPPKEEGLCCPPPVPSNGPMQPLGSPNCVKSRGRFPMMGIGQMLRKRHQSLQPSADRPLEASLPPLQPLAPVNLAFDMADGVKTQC"}
{"data": "Set 1", "SMILES": "O=C(NS(=O)(=O)c1ccc(NCC2CCOCC2)c([N+](=O)[O-])c1)c1ccc(N2CCN(Cc3ccc(C(F)(F)F)cc3-c3ccc(Cl)cc3)CC2)cc1Oc1cnc2[nH]ccc2c1", "read-out": "cell-free assay", "method": "competition with immobilised ligand", "tested at": "1 µM"}
{"target": "Tyrosine-protein kinase ITK/TSK (ITK, Homo sapiens, UniProt Q08881)", "remaining binding [%]": 100}
{"target": "Serine/threonine-protein kinase WNK2 (WNK2, Homo sapiens, UniProt Q9Y3S1)", "remaining binding [%]": 75}
{"target": "Serine/threonine-protein kinase D1 (PRKD1, Homo sapiens, UniProt Q15139)", "remaining binding [%]": 89}
{"target": "Epidermal growth factor receptor (EGFR, Homo sapiens, UniProt P00533)", "remaining binding [%]": 84}
{"target": "Serine/threonine-protein kinase 33 (STK33, Homo sapiens, UniProt Q9BYT3)", "remaining binding [%]": 100}
{"target": "Protein kinase C eta type (PRKCH, Homo sapiens, UniProt P24723)", "remaining binding [%]": 100}
{"target": "Interleukin-1 receptor-associated kinase 4 (IRAK4, Homo sapiens, UniProt Q9NWZ3)", "remaining binding [%]": 85}
{"target": "Peripheral plasma membrane protein CASK (CASK, Homo sapiens, UniProt O14936)", "remaining binding [%]": 80}
{"target": "Cyclin-dependent kinase 3 (CDK3, Homo sapiens, UniProt Q00526)", "remaining binding [%]": 100}
{"target": "Fibroblast growth factor receptor 3 (FGFR3, Homo sapiens, UniProt P22607, G697C)", "remaining binding [%]": 100}
{"target": "3-phosphoinositide-dependent protein kinase 1 (PDPK1, Homo sapiens, UniProt O15530)", "remaining binding [%]": 70}
{"target": "Phosphorylase b kinase gamma catalytic chain, skeletal muscle/heart isoform (PHKG1, Homo sapiens, UniProt Q16816)", "remaining binding [%]": 100}
{"target": "G protein-coupled receptor kinase 4 (GRK4, Homo sapiens, UniProt P32298)", "remaining binding [%]": 100}
{"target": "Hormonally up-regulated neu tumor-associated kinase (HUNK, Homo sapiens, UniProt P57058)", "remaining binding [%]": 100}
{"target": "Tyrosine-protein kinase CSK (CSK, Homo sapiens, UniProt P41240)", "remaining binding [%]": 87}
{"target": "Serine/threonine-protein kinase NIM1 (NIM1K, Homo sapiens, UniProt Q8IY84)", "remaining binding [%]": 94}
{"data": "Set 2", "target": "DNA polymerase theta, ATPase domain (POLQ, Homo sapiens, UniProt O75417)", "read-out": "enzyme activity", "action": "inhibitor", "tested at": "77 µM", "relative to": "untreated", "UniProt O75417, sequence (whole entry, unmodified, looked up)": "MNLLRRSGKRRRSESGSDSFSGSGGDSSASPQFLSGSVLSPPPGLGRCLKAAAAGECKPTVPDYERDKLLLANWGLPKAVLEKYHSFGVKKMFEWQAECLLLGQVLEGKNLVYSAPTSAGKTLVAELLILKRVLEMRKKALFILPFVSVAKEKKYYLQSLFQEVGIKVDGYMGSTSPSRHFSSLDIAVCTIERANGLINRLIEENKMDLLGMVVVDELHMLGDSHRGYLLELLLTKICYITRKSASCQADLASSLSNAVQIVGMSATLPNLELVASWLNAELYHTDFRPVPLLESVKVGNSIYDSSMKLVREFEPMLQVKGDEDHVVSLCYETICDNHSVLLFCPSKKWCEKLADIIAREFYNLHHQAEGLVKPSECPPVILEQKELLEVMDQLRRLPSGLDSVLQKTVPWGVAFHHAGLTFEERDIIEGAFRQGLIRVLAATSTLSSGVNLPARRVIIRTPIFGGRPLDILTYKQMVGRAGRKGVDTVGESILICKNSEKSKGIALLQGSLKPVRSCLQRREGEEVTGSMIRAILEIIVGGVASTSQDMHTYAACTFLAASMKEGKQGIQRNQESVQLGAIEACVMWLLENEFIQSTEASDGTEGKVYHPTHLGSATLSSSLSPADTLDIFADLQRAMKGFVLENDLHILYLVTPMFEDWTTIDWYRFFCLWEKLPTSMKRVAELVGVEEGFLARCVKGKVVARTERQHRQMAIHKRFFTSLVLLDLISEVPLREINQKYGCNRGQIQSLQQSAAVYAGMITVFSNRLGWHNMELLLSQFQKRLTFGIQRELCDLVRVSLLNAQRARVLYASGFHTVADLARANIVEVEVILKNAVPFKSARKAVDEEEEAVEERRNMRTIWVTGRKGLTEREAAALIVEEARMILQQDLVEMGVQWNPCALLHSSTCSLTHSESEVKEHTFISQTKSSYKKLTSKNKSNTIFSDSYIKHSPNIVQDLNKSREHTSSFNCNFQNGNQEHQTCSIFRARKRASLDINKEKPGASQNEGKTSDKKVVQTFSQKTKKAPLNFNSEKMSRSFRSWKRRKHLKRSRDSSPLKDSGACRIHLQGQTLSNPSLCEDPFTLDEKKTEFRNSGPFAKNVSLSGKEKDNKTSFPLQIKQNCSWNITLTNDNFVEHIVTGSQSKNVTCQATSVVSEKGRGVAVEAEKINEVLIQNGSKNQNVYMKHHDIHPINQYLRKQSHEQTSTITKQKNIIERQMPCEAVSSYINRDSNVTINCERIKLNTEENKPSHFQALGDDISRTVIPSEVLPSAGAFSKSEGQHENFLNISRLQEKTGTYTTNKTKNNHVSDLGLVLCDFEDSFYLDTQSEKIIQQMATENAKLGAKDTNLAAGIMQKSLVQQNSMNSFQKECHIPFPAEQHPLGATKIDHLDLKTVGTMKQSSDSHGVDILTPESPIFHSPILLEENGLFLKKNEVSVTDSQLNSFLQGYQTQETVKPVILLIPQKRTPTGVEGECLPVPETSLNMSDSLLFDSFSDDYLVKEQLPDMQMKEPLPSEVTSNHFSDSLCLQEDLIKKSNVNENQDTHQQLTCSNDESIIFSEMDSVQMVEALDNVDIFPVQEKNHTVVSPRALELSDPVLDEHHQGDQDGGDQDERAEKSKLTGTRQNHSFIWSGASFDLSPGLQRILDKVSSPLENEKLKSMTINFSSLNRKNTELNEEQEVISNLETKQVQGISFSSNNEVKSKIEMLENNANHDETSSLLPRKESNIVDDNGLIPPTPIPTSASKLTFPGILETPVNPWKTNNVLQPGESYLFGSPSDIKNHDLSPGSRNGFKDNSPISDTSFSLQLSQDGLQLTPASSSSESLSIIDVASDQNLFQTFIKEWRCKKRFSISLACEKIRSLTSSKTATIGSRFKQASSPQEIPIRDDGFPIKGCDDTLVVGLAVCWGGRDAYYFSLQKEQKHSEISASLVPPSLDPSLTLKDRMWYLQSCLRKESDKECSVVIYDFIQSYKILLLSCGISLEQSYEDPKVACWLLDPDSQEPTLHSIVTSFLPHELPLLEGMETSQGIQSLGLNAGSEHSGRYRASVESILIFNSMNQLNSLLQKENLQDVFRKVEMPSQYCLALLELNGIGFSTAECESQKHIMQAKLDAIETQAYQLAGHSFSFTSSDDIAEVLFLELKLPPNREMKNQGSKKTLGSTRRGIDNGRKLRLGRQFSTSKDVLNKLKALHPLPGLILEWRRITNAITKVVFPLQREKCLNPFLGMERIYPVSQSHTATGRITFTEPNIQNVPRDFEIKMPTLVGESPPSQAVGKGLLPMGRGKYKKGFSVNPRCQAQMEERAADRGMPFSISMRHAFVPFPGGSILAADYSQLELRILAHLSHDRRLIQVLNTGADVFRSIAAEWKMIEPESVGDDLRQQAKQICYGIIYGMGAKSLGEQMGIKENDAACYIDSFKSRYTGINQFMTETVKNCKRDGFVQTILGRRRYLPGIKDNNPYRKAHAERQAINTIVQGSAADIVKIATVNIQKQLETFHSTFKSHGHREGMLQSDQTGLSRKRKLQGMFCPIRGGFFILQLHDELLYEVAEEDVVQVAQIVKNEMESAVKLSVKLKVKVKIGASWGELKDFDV"}
{"SMILES": "C[C@H]1O[C@H](O[C@H]2[C@H](O)[C@@H](O)[C@@H](O[C@H]3[C@H](O)[C@@H](O)C(O)O[C@@H]3CO)O[C@@H]2CO)[C@H](O)[C@@H](O)[C@@H]1N[C@H]1C=C(CO)[C@@H](O)[C@H](O)[C@H]1O (some centres unmarked)", "remaining activity [%]": 97.1}
{"SMILES": "CN1C[C@H](O)[C@@H](O)[C@H](O)[C@H]1CO", "remaining activity [%]": 106}
{"SMILES": "COc1ccc(-c2cc(=O)c3c(O)cc(O)cc3o2)cc1O", "remaining activity [%]": 103}
{"SMILES": "O=C1Nc2ccccc2/C1=C1/Nc2ccccc2C1=O", "remaining activity [%]": 89.8}
{"SMILES": "O=C(c1ccccc1)c1ccc(N2CCOCC2)cc1O", "remaining activity [%]": 98.7}
{"SMILES": "CC(Oc1ccccc1)C(=O)N[C@@H]1C(=O)N2[C@@H]1SC(C)(C)[C@@H]2C(=O)O (some centres unmarked)", "remaining activity [%]": 96.9}
{"data": "Set 3", "target": "Calcium/calmodulin-dependent protein kinase type II subunit alpha (CAMK2A, Homo sapiens, UniProt Q9UQM7)", "read-out": "enzyme activity", "action": "inhibitor", "tested at": "10 µM", "UniProt Q9UQM7, sequence (whole entry, looked up)": "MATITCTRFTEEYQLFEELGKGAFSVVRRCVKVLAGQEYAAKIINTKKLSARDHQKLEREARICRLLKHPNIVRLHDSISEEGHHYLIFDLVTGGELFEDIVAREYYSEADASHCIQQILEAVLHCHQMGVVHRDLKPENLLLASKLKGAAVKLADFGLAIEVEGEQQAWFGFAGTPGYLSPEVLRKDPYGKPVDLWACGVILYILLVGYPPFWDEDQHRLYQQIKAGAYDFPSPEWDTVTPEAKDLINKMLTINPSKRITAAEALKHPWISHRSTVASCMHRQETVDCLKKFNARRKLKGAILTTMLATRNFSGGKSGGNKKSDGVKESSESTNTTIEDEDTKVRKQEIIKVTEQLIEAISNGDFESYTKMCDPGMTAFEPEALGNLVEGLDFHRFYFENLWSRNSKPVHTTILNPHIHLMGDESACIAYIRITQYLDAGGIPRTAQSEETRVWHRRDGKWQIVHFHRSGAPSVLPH"}
{"SMILES": "CC(=O)N[C@H]1[C@H](O[C@@H]([C@H](O)[C@H](C=O)NC(C)=O)[C@H](O)CO)O[C@H](CO)[C@@H](O[C@@H]2O[C@H](CO)[C@@H](O)[C@H](O)[C@H]2NC(C)=O)[C@@H]1O", "inhibition [%]": -14}
{"SMILES": "C/C=C(/C)C(=O)O[C@H]1[C@@H](OC(C)=O)c2c(ccc3ccc(=O)oc23)OC1(C)C (racemic)", "inhibition [%]": 0.17}
{"SMILES": "Oc1cc(O)c2c(c1)OC(c1ccc(O)c(O)c1)C(OC1(c3ccc(O)c(O)c3)Oc3cc(O)cc(O)c3C(O)C1O)C2 (centres unmarked)", "inhibition [%]": -74}
{"SMILES": "C[C@@H]1CC[C@]2(C(=O)O)CC[C@]3(C)C(=CC[C@@H]4[C@@]5(C)C[C@@H](O)[C@@H](O)C(C)(C)[C@@H]5CC[C@]43C)[C@@H]2[C@]1(C)O", "inhibition [%]": 2}
{"SMILES": "Cc1cc(O)c(C)c2c1O[C@](C)(CCC[C@H](C)CCC[C@H](C)CCCC(C)C)CC2 (relative stereo)", "inhibition [%]": 0.03}
{"SMILES": "C[C@@H]1CC[C@@]2(OC1)O[C@H]1C[C@H]3[C@@H]4CC[C@H]5C[C@@H](O)CC[C@]5(C)[C@H]4CC[C@]3(C)[C@H]1[C@@H]2C", "inhibition [%]": -22}
{"SMILES": "C=C(C)[C@H](CC=C(C)C)Cc1c(O)cc(OC)c2c1O[C@H](c1ccc(O)cc1O)CC2=O", "inhibition [%]": -19}
{"SMILES": "CS(=O)(=O)c1ccc(C(=O)Nc2ccc(Cl)c(-c3ccccn3)c2)c(Cl)c1", "inhibition [%]": -14}
{"SMILES": "CC1(C)CC[C@]2(C(=O)O)[C@H](O)C[C@]3(C)C(=CC[C@@H]4[C@@]5(C)C[C@H](O)[C@H](O[C@@H]6O[C@H](CO)[C@@H](O)[C@H](O)[C@H]6O)C(CO)(CO)[C@@H]5CC[C@]43C)[C@@H]2C1", "inhibition [%]": 3}
{"SMILES": "N#Cc1ccc2c(c1)N(CCCN1CCC(O)CC1)c1ccccc1S2", "inhibition [%]": -10}
{"SMILES": "CC[C@H]1[C@@H](O)[C@@H]2[C@H](CC[C@]3(C)[C@@H]([C@H](C)CCC(=O)O)CC[C@@H]23)[C@@]2(C)CC[C@@H](O)C[C@@H]12", "inhibition [%]": -4}
{"SMILES": "CC(C)=CCc1c(O)cc2oc3cc(O)c(O)c(CCC(C)(C)O)c3c(=O)c2c1O", "inhibition [%]": -33}
{"data": "Set 4", "host": "mouse", "medium": "microsomes or S9", "tested at": "2 µM", "time": "0.5 h"}
{"SMILES": "CC(C)NC(=O)NC(=O)C(C)N(C)Cc1ccccc1Br (centres unmarked)", "remaining compound": "2.14%"}
{"SMILES": "Cc1cc(=O)[nH]c(SCC(=O)c2cc(C)n(CC3CCCO3)c2C)c1C#N (centres unmarked)", "remaining compound": "8.34%"}
{"SMILES": "Cc1ccccc1S(=O)(=O)Nc1nc2ccccc2nc1NC(c1ccccc1)c1nccn1C (centres unmarked)", "remaining compound": "34.2%"}
{"SMILES": "Cc1cc(=O)n(C2CCNCC2)nc1-c1ccccc1", "remaining compound": "56.9%"}
{"SMILES": "Cn1ncc2c(NNC(=O)c3ccc(O)cc3)ncnc21", "remaining compound": "80.1%"}
{"SMILES": "CCOc1cc(CNC(C)(C)C)c(Cl)cc1OC(C)C", "remaining compound": "0.235%"}
{"SMILES": "Cc1cnn(CCNC(C)C(=O)Nc2sccc2C(N)=O)c1 (centres unmarked)", "remaining compound": "70.1%"}
{"note": "Excerpt of the above (set 1):"}
{"target": "Epidermal growth factor receptor (EGFR, Homo sapiens, UniProt P00533)", "remaining binding [%]": 84}
{"target": "Serine/threonine-protein kinase 33 (STK33, Homo sapiens, UniProt Q9BYT3)", "remaining binding [%]": 100}
{"target": "Protein kinase C eta type (PRKCH, Homo sapiens, UniProt P24723)", "remaining binding [%]": 100}
{"target": "Interleukin-1 receptor-associated kinase 4 (IRAK4, Homo sapiens, UniProt Q9NWZ3)", "remaining binding [%]": 85}
{"target": "Peripheral plasma membrane protein CASK (CASK, Homo sapiens, UniProt O14936)", "remaining binding [%]": 80}
{"target": "Cyclin-dependent kinase 3 (CDK3, Homo sapiens, UniProt Q00526)", "remaining binding [%]": 100}
